Experimental data from different studies.
Every numbered part comes from another study and shows a few of its results, in no order.

Sample 1
Target: Sal-like protein 4, full length isoform B (SALL4, Homo sapiens, UniProt Q9UJQ4-2, residues 1-616)
Method: universal PBM
Form: double-stranded DNA, one strand shown
Matrix: in vitro
Concentration: not given
Notes: 8-mer, flanks averaged, mean of replicates
Reading: higher = stronger binding
Target sequence (chain): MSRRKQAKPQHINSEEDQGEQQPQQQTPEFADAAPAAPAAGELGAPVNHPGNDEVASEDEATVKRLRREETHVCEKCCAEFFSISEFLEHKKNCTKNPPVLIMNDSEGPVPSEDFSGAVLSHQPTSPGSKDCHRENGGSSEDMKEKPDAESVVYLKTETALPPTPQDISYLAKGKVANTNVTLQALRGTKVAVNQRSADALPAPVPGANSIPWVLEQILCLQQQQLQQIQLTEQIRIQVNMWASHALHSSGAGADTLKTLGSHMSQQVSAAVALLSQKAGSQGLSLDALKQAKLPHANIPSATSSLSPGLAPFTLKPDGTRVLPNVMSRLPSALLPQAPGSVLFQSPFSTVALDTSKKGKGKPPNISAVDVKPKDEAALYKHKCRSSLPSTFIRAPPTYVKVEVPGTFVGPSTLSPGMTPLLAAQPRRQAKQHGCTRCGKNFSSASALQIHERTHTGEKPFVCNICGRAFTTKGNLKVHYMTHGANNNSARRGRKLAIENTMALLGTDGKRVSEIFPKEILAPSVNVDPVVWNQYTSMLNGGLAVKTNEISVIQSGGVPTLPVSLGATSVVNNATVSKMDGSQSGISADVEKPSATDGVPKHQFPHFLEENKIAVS
Strand | E-score
AGGTTTCG | -0.177
ATGAGTTA | 0.165
AGCCAACC | -0.132
GGAGGTTA | 0.0474
AACGTTTA | 0.144
CTATGAAA | 0.248
GAGTGGCC | -0.246
CCGTTTGA | -0.216
AAAGCCCG | -0.142
GAATAGGA | 0.152
CGGACGAC | -0.316
AACGATAT | 0.313
CCAGCTTA | 0.0238
ACACCACT | 0.0644
ATCGCGGA | -0.138
TCAATCAA | 0.159
CGTCGAAC | -0.185
AAGCTAAC | 0.0166
ATACCTCC | -0.0672
AAACCGTC | -0.0909
ACGATTTC | 0.186
GCACGAAC | 0.0353
AGCGTGCC | -0.237

Sample 2
Target: RING finger protein unkempt homolog, zinc fingers 1-6, GST-SBP tag (UNK, Homo sapiens, UniProt Q9C0B0, residues 30-357)
UniProt Q9C0B0, sequence (30-357, looked up): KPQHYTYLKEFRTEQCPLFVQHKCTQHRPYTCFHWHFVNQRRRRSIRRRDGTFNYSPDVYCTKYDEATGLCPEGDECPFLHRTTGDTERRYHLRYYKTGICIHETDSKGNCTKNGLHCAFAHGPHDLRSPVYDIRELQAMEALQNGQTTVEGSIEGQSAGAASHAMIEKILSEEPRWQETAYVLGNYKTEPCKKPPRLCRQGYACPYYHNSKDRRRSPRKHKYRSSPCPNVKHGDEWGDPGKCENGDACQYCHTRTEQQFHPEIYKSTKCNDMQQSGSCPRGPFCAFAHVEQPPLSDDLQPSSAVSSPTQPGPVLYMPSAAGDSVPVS
Method: RNA Bind-n-Seq
Form: RNA
Matrix: in vitro
Concentration: not given
Notes: RNA with constant flanks, human-mouse chimeric sites, ends assumed
Baseline: input RNA pool
Reading: higher = stronger binding
Constant ends, left off below: GGGAGUUCUACAGUCCGACGAUC … CAACAGAGGAUUGAGCAUCA
Strand | bound/input enrichment [ratio]
GUACUGCAGCAGCAGGGAAAACUGCAGGAAGCACUGAUGCAUUAUAAGGAGGCUAUUCGAAUCAGUCCUACAUUUGCUGAUGCCUACUCUAAUAUGGGAAACACUCUAAAGGAGAUGCAG | 0.331
CUGAGGAUACCACUGAAGAGACCUUAAAAGAAUCAUUUGAGGGCUCUGUUCGUGCAAAGGAUAGUUAUGAUCGGGAAACUGGUUCUUCCAAAGGGUUUGGUUUUGUAAGACUUCAACGUG | 0.309
AUAAAGGCCAUGUUGAGUGGUCCAGGUCAGUUUGCUGAGAAUGAAACCAACGAGGUCAAUUUUAGAGAGAUCCCCUCACAUGUGCUAUCAAAAGUGUGCAUGUAUUUUACGUACAAGGUC | 0.23
UGGCGCCUGCGCUCCCCACUCGUGUUUGUAUUUUUAUUUUUAUAAGACAUGUGUAUUUACAAUUGAGCUUUUGUUACAUAAUGCUGAAAUGCUACUGGAGAUUAUGAAAAAUGUUUCAAU | 0.265
CUGUGACUGAUGGCAGCUACCUGAGUGGCAGCUGAAGUUGACUCCCUCUCCUUGCCUGCCUAGUUUCCCACUGCCCCCCCAUCCCCCAGUGUCGGCUGAGAUGUUGCCUCUGCACGGUUC | 1.71
AACUUUGUACAUAGAUUUCCCUUUGUAGCUGUUUCAAUUGGCUUCCUUGUGAAUAAAGAGAUGGAGUUUGGAAUUGUGUACAGCUGUGUGGAAGAUAAGAUGUACACCGGCAGGAAAGGG | 0.787
GCAAGAGAUGAUGAGGCGGCAGCUGUUGCCCUUUCCUCCCUGAUUCAUGCUUUGGAUGAGUUAAACAUGGUCGCCAUCGUCCGAUAUGCUUAUGACAAAAGAUCUAAUCCUCAAGUUGGU | 0.127
AAAGAGAAAGCUAAAACACUAAUAGAGAAGAGGAUUGGCAAAGAGAAAUUUCAUAGAAAACUAGGAUUUAUUAGCAAACAUGAGUUAUAUUCCAGAGCGUCUCAGAAACCCCAGCCAAAC | 11.9
GCUCUUGGGAAUGUAAUCAGCGCCUUGGGAGACAAGAGCAAGAGAGCCACCCAUGUCCCUUACAGAGACUCUAAGCUGACAAGACUCUUGCAGGAUUCCCUUGGGGGUAACAGCCAAACC | 0.126
AAAGAACUACUGAGGCAAGGCAGCAAAUUUAGAAGAAACAUUUCAACACUAUUAAUAGAGUUAGGAUUCCAAAUUAAAAAGAAAACUAAGACAUUAUACAUCAACAAAGCCAAUGUGUGG | 24.5
UCAGAAGCUGUGCUGGGUCACUUUUCAUAUCCAGAUCCUUCCCAGUGGACAGAUGAAGAACUGGGAAUCCCUCCUGAUGACGAGGACUGACACUGUAAACUCUCUGGACGAGUAGGAGCA | 0.711

Sample 3
Target: Histone acetyltransferase KAT6A, winged helix 1, GST fusion (KAT6A, Homo sapiens, UniProt Q92794, residues 1-85)
Method: protein binding microarray
Form: double-stranded DNA, one strand shown
Matrix: in vitro
Concentration: not given
Notes: 8-mer, flanks averaged, mean of 2 arrays, mostly near background
Baseline: not given
Reading: higher = stronger binding
Construct (chain): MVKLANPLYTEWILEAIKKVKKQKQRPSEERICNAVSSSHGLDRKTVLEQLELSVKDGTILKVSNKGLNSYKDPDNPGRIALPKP
Strand | E-score
TACATAGA | -0.232
ACCTGGCC | -0.106
GAGCTTAC | -0.0511
GGTTAACA | 0.0371
CCGAGAAG | 0.0581
CGACTCAC | 0.0532
ACATAATC | -0.0236
AGGACCAC | -0.106
TACCGAGA | -0.0125
GCCCGGCC | 0.318
GGTGCGTA | 0.108
CTTGGCTC | -0.19
AACAGGGA | -0.121
CAAGGATC | -0.0898
CATCCGCA | 0.0467
CCGCTTAA | 0.212
CCTGCAAG | -0.193

Sample 4
Target: Centromere-binding protein 1, full length, N-terminal tag (CBF1, Saccharomyces cerevisiae, UniProt P17106, residues 1-351)
UniProt P17106, sequence (whole entry, looked up): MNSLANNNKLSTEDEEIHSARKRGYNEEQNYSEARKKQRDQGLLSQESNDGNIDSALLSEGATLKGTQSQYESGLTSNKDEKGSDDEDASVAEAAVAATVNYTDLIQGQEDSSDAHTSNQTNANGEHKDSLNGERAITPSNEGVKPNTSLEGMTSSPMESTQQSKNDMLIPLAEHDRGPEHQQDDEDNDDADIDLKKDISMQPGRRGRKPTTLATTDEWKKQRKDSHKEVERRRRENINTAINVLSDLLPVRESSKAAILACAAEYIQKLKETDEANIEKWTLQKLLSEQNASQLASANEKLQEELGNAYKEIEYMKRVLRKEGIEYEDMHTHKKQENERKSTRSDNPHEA
Method: protein-binding microarray
Form: double-stranded DNA, one strand shown
Matrix: in vitro
Concentration: 0.8 µM
Notes: whole 60-bp probe, no competitor
Reading: higher = stronger binding
Constant ends, left off below: … GTCTTGATTCGCTTGACGCTGCTG
Strand | fluorescence intensity
GAATGAATAAATAAAATCGTGACTAATACGTCCTAG | 865 a.u.
TGTACGAAGCTATAACATGTGATTATAGTAGTTAGG | 1890 a.u.
CTATATACATAAGATCTGGTGAAGCGAGGAGTCTTC | 519 a.u.
CCTAACTACTATAAATACGTGACATAGCTTCGTACA | 709 a.u.
TGTACGAAGCTATTGATCATGATTATAGTAGTTAGG | 551 a.u.
CTATTCTTTTCATCTCATATGATTTAGCGTTTTTTC | 584 a.u.
CTATCGATAATTTTTTTAGTCACAGGGTCCGTCTTC | 1340 a.u.
GAAATCTGCGCCGTGCACGTTTTTACTTCCCCTTAG | 667 a.u.
CTAAGAGTGGCTGATCATGTGTAATAGGCGAATTTC | 956 a.u.
GAATGTTTTGTTTAAAACGTGTATTGATGGTGTTAG | 588 a.u.
CTAATGCCATCTTTTGACGTCATACATAGTTGTTTC | 532 a.u.
CCTAACTACTATAATCACCTGATATAGCTTCGTACA | 2560 a.u.
GAAAAGAATAAAAAAATCACCACGAACACACAATAG | 586 a.u.
CTAACACTAACAAAGAAGGTGACTTGCGCTTAATTC | 558 a.u.
CTAACCAGATTCGATCATCAGAGCTTAAAATTGTTC | 509 a.u.
CCTAACTACTATAAAGGCGTGCCATAGCTTCGTACA | 513 a.u.
CCTAACTACTATACAGCTGTTATATAGCTTCGTACA | 483 a.u.
CCTAACTACTATATTCACGTGAAATAGCTTCGTACA | 3400 a.u.
CTATCGTGTGTCATTCACATGCGCATATTTTTTTTC | 845 a.u.
GAAAAAATATCCTGTGATGTTATTTTATTTTTTTAG | 631 a.u.
CTAGTGAACAGTGATCACATTAATGAATCAACCTTC | 582 a.u.
TGTACGAAGCTATTCCACGTGATTATAGTAGTTAGG | 5970 a.u.
CTATTTTGACAACGTGATGAGGTAATCTTCTGTTTC | 2950 a.u.
CTACTTTATATTTGTCACCTTTTCCGTATCGGCTTC | 565 a.u.
CTATTATGAAAAGGGAACGTGATATAAAAAAACTTC | 2450 a.u.

Sample 5
Target: Ras GTPase-activating protein-binding protein 1, RRM domain (G3BP1, Homo sapiens, UniProt Q13283)
UniProt Q13283, sequence (whole entry, looked up): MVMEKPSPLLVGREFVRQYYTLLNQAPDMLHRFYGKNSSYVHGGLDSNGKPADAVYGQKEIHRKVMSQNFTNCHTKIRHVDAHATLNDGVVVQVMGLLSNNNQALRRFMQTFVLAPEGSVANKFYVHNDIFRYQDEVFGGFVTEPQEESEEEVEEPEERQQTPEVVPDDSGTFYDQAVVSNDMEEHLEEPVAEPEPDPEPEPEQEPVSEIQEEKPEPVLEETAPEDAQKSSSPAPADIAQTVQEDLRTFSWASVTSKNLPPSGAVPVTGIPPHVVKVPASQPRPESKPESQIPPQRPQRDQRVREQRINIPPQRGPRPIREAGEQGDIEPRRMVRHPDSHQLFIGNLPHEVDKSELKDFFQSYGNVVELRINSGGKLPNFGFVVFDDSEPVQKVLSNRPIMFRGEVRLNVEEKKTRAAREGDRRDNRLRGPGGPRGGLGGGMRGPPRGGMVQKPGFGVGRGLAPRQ
Method: RNA Bind-n-Seq
Form: RNA
Matrix: in vitro
Concentration: 1 µM
Notes: whole 134-nt RNA, ends assumed
Together with: 150 mM KCl
Baseline: input library
Reading: higher = stronger binding
Constant ends, left off below: GGGAGUUCUACAGUCCGACGAUC … UGGAAUUCUCGGGUGUCAAGG
Strand | log2 enrichment
UGCCAGGCCCACCCCCAGGUGUUCCCGCGCCUGGGGGCCCACCCCUGUCCACCGGACCUAUAGUGGACCUGCUCCAGUACAGCCAGAAGG | -0.591
UGGGAGGUGGAUUUUGUUUAUUUUUUUAGCUCAUUUCCAGGGGUGGGAAUUUUUUUUUAAUAUGUGUCAUGAAUAAAGUUGGUUUUGAAA | 1.79
UCCUGUGCUACACAUCGUAUGUACCGAAUCGGGGCCCCCCGGGGCCCCCCGGCCCCCCGGAAAGUAUUAUGUUACGCCGUUCGGAUCUGC | -0.367
AGUCCUGUGCUACACAUCGUAUGUACCGAAUCGGGGAGGGGAAAGGGGUUUUUGGGGAAAGUAUUAUGUUACGCCGUUCGGAUCUGCACU | 1.18
UUACCGACACCGUAGAACAGAGCAAGAGGAGGAUGAAGAGCUAUUAACAGAAAGCUCCAAAGCAACCAAUGUUUGCACUCGAUUUGAAGA | -0.053
ACCAUGCAGGUGGGCAUCUUUGGGAAGUGGGGCAAGGGGGGGAUAGGGAGGGGGGUAACACUUUGGGAACAGGUGGUCCCAUGUCGUUUC | 0.309
CAAGUCCUGUGCUACACAUCGUAUGUACCGAAUCGGUUUUUGGAAAAAAAGGAGGAAAGUAUUAUGUUACGCCGUUCGGAUCUGCACUUC | -0.201
CUCAAGUCCUGUGCUACACAUCGUAUGUACCGAAUCGGCCGGGCCGGGCCGGGAAAGUAUUAUGUUACGCCGUUCGGAUCUGCACUUCCA | -0.732
AAGUCCUGUGCUACACAUCGUAUGUACCGAAUCAAAUUUAAACCCAAAUUUUUAAAAAAGUAUUAUGUUACGCCGUUCGGAUCUGCACUU | -0.131
AAAAUUUCCAGUACCUUUGUCACAAUCCUAACACAUUAUCGGGAGCAGUGUCUUCCAUAAUGUAUAAAGAACAAGGUAGUUUUUACCUAC | -0.115
AAGUCCUGUGCUACACAUCGUAUGUACCGAAUCGGGAAAGGGAAAAAGGGAAAGGGAAAGUAUUAUGUUACGCCGUUCGGAUCUGCACUU | 0.642
ACCAUGCAGGUGGGCAUCUUGGGGAAGUGGGGCAAGGGGGGGAUAGGGAGGGGGGUAACACUUUGGGAACAGGUGGUCCCAGGUCGUUUC | -0.489
AAGUCCUGUGCUACACAUCGUAUGUACCGAAUCGGGGAAAAAGGGGUGGGGUGGGGAAAGUAUUAUGUUACGCCGUUCGGAUCUGCACUU | 0.684
AAGUCCUGUGCUACACAUCGUAUGUACCGAAUCGGGGAAAAAGGGGAGGGGAGGGGAAAGUAUUAUGUUACGCCGUUCGGAUCUGCACUU | 0.869

Excerpt of the above (sample 1):
Strand | E-score
ATGAGTTA | 0.165
AGCCAACC | -0.132
GGAGGTTA | 0.0474
AACGTTTA | 0.144
CTATGAAA | 0.248
